Earlier results that unrelated publications cite.
Numbered parts are unrelated; values within a part may stem from several laboratories. ± gives the spread as reported.

Sample 1 — organism: SARS-CoV-2; observed: cytopathic effect; cell line: Caco-2; tested at: 10 µM
SMILES	inhibition
C=CC(=O)c1ccc2ccccc2c1	7.1%
N=c1c[n+](N2CCOCC2)[n-]o1	-6.9%
CCCCCCCCCCCCCCCCCC[S+](CCC)c1ccccc1C(=O)OCC (stereo not drawn)	131%
CCN(CC)c1ccc(C(=C2C=CC(=[N+](CC)CC)C=C2)c2ccccc2)cc1	5.5%
O=C1C=CC(=O)C2=C1C1c3ccccc3C2c2ccccc21	23.8%
CO/N=C(\C(=O)N[C@@H]1C(=O)N2C(C(=O)O)=C(CSC(=O)c3ccco3)CS[C@H]12)c1csc(N)n1.Cl	5.3%
CC(C)C[C@@H](C=O)NC(=O)[C@H](CC(C)C)NC(=O)[C@H](CC(C)C)NC(=O)OCc1ccccc1	-11.4%
Cc1ccccc1N(C)C(=O)c1ccc([S+]([O-])c2nccs2)c([N+](=O)[O-])c1 (stereo not drawn)	4%
CCCC[C@H](NC(=O)[C@@H]1[C@@H]2[C@H](CN1C(=O)[C@@H](NC(=O)NC1(CS(=O)(=O)C(C)(C)C)CCCCC1)C(C)(C)C)C2(C)C)C(=O)C(=O)NC1CC1	8%
Nc1ccc2cc3ccc(N)cc3nc2c1	95.8%
Oc1c(I)cc(I)c(O)c1I	9.2%
NC[C@@H]1O[C@H](C23CC4CC(CC(C4)C2)C3)Cc2c1ccc(O)c2O	-7.2%
Oc1ccc2ccccc2c1SSc1c(O)ccc2ccccc12	5.2%

Further values, each from its own experiment
Molecule	tested on	test	test system	setting	endpoint	value
COc1ccccc1NC(=O)c1ccccc1[Se][Se]c1ccccc1C(=O)Nc1ccccc1OC	SARS-CoV-2 papain-like protease	enzyme activity		with: 2 mM DTT	IC50	0.263 ± 0.121 µM
CN(C)CCOc1ccc(/C(=C(/CCCl)c2ccccc2)c2ccccc2)cc1	MERS-CoV	viral replication, ELISA	Vero E6		EC50	12.9 µM
C=C1c2cccc(O)c2C(=O)C2=C(O)[C@]3(O)C(=O)C(C(N)=O)=C(O)[C@@H](N(C)C)[C@@H]3[C@@H](O)[C@H]12	SARS-CoV-2	viral cytopathic effect	Vero E6	20 µM	inhibition	0.22%
CC(C)(C)NC(=O)N[C@H](C(=O)N1C[C@H]2[C@@H]([C@H]1C(=O)NC(CC1CCC1)C(=O)C(N)=O)C2(C)C)C(C)(C)C (stereo partly drawn)	SARS-CoV-2	viral replication			IC50	38.6 µM
CCN(CCO)CCCC(C)Nc1ccnc2cc(Cl)ccc12 (stereo not drawn)	SARS-CoV	cytopathic effect	Vero E6		EC50	7.97 µM
COc1cc(NC(C)CCCN)c2ncccc2c1 (stereo not drawn)	SARS-CoV-2	viral cytopathic effect	Vero E6	20 µM	inhibition	-0.14%
O=C(O[C@@H]1Cc2c(O)cc(O)cc2O[C@@H]1c1cc(=O)c(O)c2c(O)c(O)cc([C@H]3Oc4cc(O)cc(O)c4C[C@H]3O)c2c1)c1cc(O)c(O)c(O)c1	SARS-CoV-2 main protease	enzyme activity, inhibitor			IC50	18.5 µM
Cc1c(Cl)c(C)[n+]([O-])c(Cl)c1-c1noc(-c2cc(O)c(O)c([N+](=O)[O-])c2)n1	SARS-CoV-2	viral cytopathic effect	Vero E6	20 µM	inhibition	0.51%
CC(C)(C)[C@H](NC(=O)C(F)(F)F)C(=O)N1C[C@H]2[C@@H]([C@H]1C(=O)N[C@H](C#N)C[C@@H]1CCNC1=O)C2(C)C	SARS-CoV-2	viral replication	Vero		EC90	5.6 ± 1.1 µM
N#Cc1ccc(Nc2ncc(Cc3c(F)cccc3F)o2)cc1Cl	HIV-1	viral replication	Y181C mutant		EC50	0.42 µM
N#Cc1ccccc1-c1cc(-c2ccccn2)cn(-c2ccccc2)c1=O	Replicase polyprotein 1ab, main protease (rep, Severe acute respiratory syndrome coronavirus 2, UniProt P0DTD1)				IC50	100 to 250 µM
O=C(Nc1ccccc1O)c1ccccc1[Se][Se]c1ccccc1C(=O)Nc1ccccc1O	SARS-CoV-2 papain-like protease	enzyme activity		with: 2 mM DTT	IC50	0.339 ± 0.109 µM
nirmatrelvir	SARS-CoV-2	viral replication			IC50	0.0745 µM
Cn1cnc(Cn2c(=O)[nH]/c(=N\c3cc4cn(C)nc4cc3Cl)n(Cc3cc(F)c(F)cc3F)c2=O)n1	SARS-CoV-2				EC50	0.37 µM
